Experimental data of several laboratories.
“And” joins repeats or separate records; there may be more than shown. ± marks the error that the study gave. Values after ≈ are worked out from the molar mass of the structure shown.

`C=C(NC(=O)c1csc(-c2nc3c(cc2O)-c2nc(cs2)C(=O)NC(C(C)O)C(=O)NC(=C(C)OC)c2nc(cs2)C(=O)NC2c4nc(cs4)C(=O)NC(COC(=O)c4c5c6c(cccc6n4O)COC(=O)C(OC4CC(C)(O)C(N(C)C)C(C)O4)C2OC5)c2nc-3cs2)n1)C(N)=O` (stereo not drawn) gave an AUC(0-inf) of 1630 ng·h/mL (Sprague-Dawley rats, both sexes, plasma; intravenous infusion, 6 mg/kg, day 7, multiple dosing).
With `CN(CCCO)Cc1ccc(-c2noc(-c3ccc(OCC[18F])c(C(F)(F)F)c3)n2)cc1F` the brain uptake was 0.73 ± 0.15 %ID/g (Sprague-Dawley rat, male, brain; intravenous, 60 min).
For `O=C(CCCCCCCCCCCCCCCCC(=O)Oc1c2n(cc(C(=O)NCc3c(F)cc(F)cc3F)c1=O)CC1OC3CCC(C3)N1C2=O)Oc1c2n(cc(C(=O)NCc3c(F)cc(F)cc3F)c1=O)CC1OC3CCC(C3)N1C2=O` (stereo not drawn), the prodrug hydrolysed was 45% (mouse plasma; 1 µM, 24 h).
The oral bioavailability of `C/C(N)=N/C(=N\S(=O)(=O)c1ccc(C(F)(F)F)cc1)N1C[C@H](c2ccccc2)C(c2ccc(Cl)cc2)=N1` is reported as 26.3% (cynomolgus monkey female, plasma; oral, 18 mg/kg).
`Cc1nn(-c2nc3c(F)cc(F)cc3s2)c(O)c1C(c1ccc(C(F)(F)F)cc1)c1c(C)nn(-c2nc3c(F)cc(F)cc3s2)c1O` gave an AUC(0-inf) observed of 122000 ng·h/mL and 39500 ng·h/mL and 48300 ng·h/mL (ICR mouse, plasma; intravenous, 5 mg/kg).
The C0 of `OC1(C(F)(F)F)CCN(c2nc(Nc3ccnc(C(F)(F)F)c3)nc(-c3cccc(C(F)(F)F)n3)n2)C1` (stereo not drawn) is reported as 690 ± 49.5 ng/mL (monkey, both sexes, plasma; intravenous, 1 mg/kg).
`O=C(Nc1cnccc1-c1ccc([18F])nc1)c1ccnc(NC(=O)C2CC2)c1` gave an SUV of 1.47 (FVB/NJ mice (both sexes), bladder; intravenous, dose not given, 120 min, together with: tariquidar 15 mg/kg i.v. pre-dose).
`CN([O-])C(=O)CN1CCN(CC(=O)N(C)[O-])CCN(CC(=O)N(C)[O-])CC1.[89Zr+4]` has an intact complex of 100% (radio-TLC; human serum; 3 days, run 3).
`COc1ccc2c(c1)C(C)(C)C(/C=C/C1=C(Oc3ccc(C(=O)NCCCCOc4cc(CN(Cc5ccccn5)Cc5ccccn5)cc(CN(Cc5ccccn5)Cc5ccccn5)c4)cc3)C(=C/C=C3/N(CCCCS(=O)(=O)[O-])c4ccc(OC)cc4C3(C)C)CCC1)=[N+]2CCCCS(=O)(=O)[O-].O=[N+]([O-])[O-].O=[N+]([O-])[O-].[99Tc+].[C-]#[O+].[C-]#[O+].[C-]#[O+].[Zn+2]` gave a tracer uptake of 0.02 %ID/g (mouse, brain; 12 h).
With `CN(Cc1ccccc1)C(=O)CN1CCN(CC(=O)[O-])CCN(Cc2cccc(C(=O)[O-])n2)CC1.[44Sc+3]` the tracer uptake was 0.06 %ID/g (mouse, brain; intravenous, 1 h).
For `CC(C)(O)c1ccc(N2Cc3c(ccnc3-c3ccc(F)cc3OCC(F)(F)F)C2=O)cc1`, the concentration was 2710 ng/g (male C57BL/6 mouse, brain; oral, 30 mg/kg, 6 h).
`C=C[C@]1(C)C[C@@H](OC(=O)CSc2ccc(NC(=O)c3ccco3)cc2)[C@]2(C)[C@H](C)CC[C@]3(CCC(=O)[C@H]32)[C@@H](C)[C@@H]1O` gave a CL/F of 64.5 mL/min/kg (chicken, Mycoplasmoides gallisepticum infected, plasma; intramuscular, 80 mg/kg).
`CC[C@H](C)[C@@H](C(=O)N[C@@H](CC(C)C)C(=O)N[C@@H](CO)C(=O)N[C@@H](CO)C(=O)N[C@H](C(=O)N[C@@H](CCC(=O)O)C(=O)N[C@H](C(=O)NCC(=O)N[C@@H](CO)C(=O)N[C@@H](CC(N)=O)C(=O)N[C@H](C(=O)N1C[C@H](O)C[C@H]1C(N)=O)[C@@H](C)O)C(C)C)[C@@H](C)O)N(C)C(=O)[C@H](C)NC(=O)CN(C)C(=O)[C@H](Cc1ccccc1)NC(=O)[C@H](CO)NC(=O)[C@H](CO)NC(=O)[C@H](CCCNC(=N)N)NC(=O)[C@H](CCC(N)=O)NC(=O)[C@H](CC(C)C)NC(=O)[C@H](Cc1ccccc1)NC(=O)[C@H](CCCC(=O)O)NC(=O)[C@H](C)NC(=O)[C@H](CC(C)C)NC(=O)[C@H](CCCNC(=N)N)NC(=O)[C@H](CCC(=O)O)NC(=O)[C@@H](NC(=O)[C@H](C)NC(=O)[C@@H]1CCCCNC(=O)C[C@H](NC(=O)[C@H](CCCNC(=N)N)NC(=O)CC[C@H](NC(=O)CCCCCCCCCCCCCCCCCCC(=O)O)C(=O)O)C(=O)NCC(=O)N[C@@H]([C@@H](C)O)C(=O)N[C@@H](C)C(=O)N[C@@H]([C@@H](C)O)C(=O)N1)[C@@H](C)O`: “main peak area remaining” 98% (RP-HPLC; water; 1.0 mg/mL, 7 days, pH 6.0, 40 °C).
`CN(Cc1ccccc1)C(=O)CN1CCN(CC(=O)[O-])CCN(CC(=O)[O-])CC1.[18F-].[Sc+3]` has a tracer uptake of 0.18 %ID/g (mouse, lung; intravenous, 1 h).
The adverse events of `COCC1CN(C2CCN(c3cc(OC)c(Nc4ncc(Br)c(Nc5ccc6c(c5P(C)(C)=O)OCCO6)n4)cc3C)CC2)C1` is reported as 0% (first-in-human trial; human; oral, 90 mg once daily; treatment-related leading to dose suspension).
`C=CC(=O)Nc1cc(Nc2nccc(-c3c[nH]c4ccccc34)n2)c(OC)cc1N(C)CCN(C)C` gave a recovery of 82.4% (storage stability; human dried blood spot; 2 h, -80 °C, LLOQ level).
With `CN([O-])C(=O)CN1CCN(CC(=O)N(C)[O-])CCN(Cc2ccccn2)CC1.[89Zr+4]` the intact complex was 94.1% (radio-TLC; human serum; 2 days, run 1).
The MRT(0-last) of `CCCC[C@H](OC(C)=O)c1ccccc1C(=O)O` is reported as 1.8 ± 0.2 h (beagle dog, both sexes, whole blood; intravenous, 1.5 mg/kg, single dose).
With `CC(C)c1cnc(-c2cc(Cl)ccc2F)cc1Nc1ccncc1C(=O)NC(CO)CO` the unbound AUC(0-tau) was 0.0642 µM·h (female C57BL/6 mice, plasma; oral, 10 mg/kg twice daily, day 1, MC-38 tumour-bearing, tau 8 h).
The solubility of `O=S1(=O)CC2CCCCC2CS1` (stereo not drawn) is reported as 15.7 mM (≈ 3240 µg/mL) (phase solubility, NMR; water; 25 °C, together with: hydroxypropyl-β-cyclodextrin 141 mM).
`CN(Cc1ccccc1)C(=O)CN1CCN(CC(=O)[O-])CCN(CC(=O)N(C)Cc2ccccc2)CC1.[44Sc+3]` has a tracer uptake of 9.75 %ID/g (mouse, liver; intravenous, 1 h).
`N#C[C@@H]1CCCN1C(=O)CNC(=O)c1ccnc2ccc(OCCCN3CCN(C(=O)CCc4ccc(O)c(CN5CCN6CC(=O)[O][Al-]([18F])([O]C(=O)C5)[O]c5ccc(CCC(=O)N7CCN(CCCOc8ccc9nccc(C(=O)NCC(=O)N%10CCC[C@H]%10C#N)c9c8)CC7)cc5C6)c4)CC3)cc12` (stereo partly drawn) gave a tumour-to-organ ratio of 10.8 ± 1.34 (BALB/c nude mice, U-87 MG tumour; 120 min post-injection; reference: tumour over liver).
For `O=C(Nc1cnccc1-c1ccc([18F])cc1)c1ccnc(NC(=O)C2CC2)c1`, the SUV was 5.3 (ex vivo gamma counting; GSK-3β transgenic mice, early-stage, liver; intravenous, 120 min, mean, P-gp inhibitor pretreatment, together with: tariquidar 15 mg/kg iv).
`CC[C@H](C)[C@@H]1NC(=O)[C@H](Cc2ccc(O)cc2)NC(=O)CCCSC[C@@H](C(=O)N(CC(=O)N[C@@H](CC(C)C)C(=O)NCC(N)=O)Cc2ccc(F)cc2)NC(=O)[C@H](CC(N)=O)NC(=O)[C@H](CCC(N)=O)NC1=O`: “severe adverse events” 0% (human; intranasal and intravenous, 400 µg intranasal and 20 µg intravenous).
With `Cc1nc(N)nc2c1C(=O)N[C@@H](c1ccc(F)cc1-c1cccc(O[11CH3])n1)C2` the SUV was 2.7 ± 0.1 (ex vivo biodistribution; mice, U87 subcutaneous xenograft, liver; 60 min post-injection, baseline, vehicle pre-treatment).
For `CCC(C(=O)Nc1ccc(C(N)=O)c(F)c1)n1cc(OC)c(-c2cc(Cl)ccc2-n2cc(C(F)(F)F)nn2)cc1=O` (stereo not drawn), “procedure-related adverse events” read 0% (healthy male humans; 25 mg, ASD vs IR, fed).
`CCCCN1C(=O)c2cccc3c(NCCN4CCOCC4)ccc(c23)C1=O` — result for “fluorescence quantum yield”: 0.22 (water; pH 6.0).
Under “subjects with adverse event”, `CN1CCC[C@]1(C)/C=C/S(=O)(=O)NC(=O)Nc1c2c(cc3c1CCC3)CCC2` is recorded as 0% (refers to: transaminases increased, probably related; human; oral, 12.5 mg twice daily, 14 days, multiple ascending dose).
With `O=C([O-])CN1CCN(CC(=O)[O-])CCN(Cc2cccc(C(=O)[O-])n2)CC1.[44Sc+3]` the tracer uptake was 0.25 %ID/g (mouse, muscle; intravenous, 1 h).
`COc1cccc(OC)c1-c1cc(C(=O)NC2(C(=O)O)C3CC4CC(C3)CC2C4)nn1-c1ccc(C(=O)NCCNC(=O)[C@H](CCCCNC(=O)[C@H](CC(C)C)NC(=O)C2OC2C(=O)O)NC(=O)CN2CCN(CC(=O)[O-])CCN(CC(=O)[O-])CCN(CC(=O)[O-])CC2)cc1C(C)C.[177Lu+3]` (mixture of isomers) has a tissue uptake of 0.78 %ID/g (mouse, HT-29 xenograft, liver; 72 h post injection).
`N#Cc1cccc(-c2ccc3ncc(-c4cc(F)cc(F)c4)c(N4CCC(N)CC4)c3c2)c1OC1OC(C(=O)O)C(O)C(O)C1O` (stereo not drawn) gave a radioactivity recovered of 1.4% (healthy male, urine; oral, 20 mg, 72 h, 14C-paltusotine dosed; reference: dose).
For `O=C([O-])CN1CCN(CC(=O)[O-])CCN(CC(=O)[O-])CC1.[44Sc+3]`, the tracer uptake was 0.04 %ID/g (mouse, brain; intravenous, 1 h).
`COc1cnc2cccc(N3CCc4c(cc(Cn5ccnc5)cc4-c4cn(C)nc4C(F)(F)F)C3=O)c2c1` has an MRT(0-inf) of 2.4 h (male CD-1 mouse, plasma; oral, 50 mg/kg).
For `CN(Cc1ccccc1)C(=O)CN1CCN(CC(=O)N(C)Cc2ccccc2)CCN(Cc2cccc(C(=O)[O-])n2)CC1.[44Sc+3]`, the tracer uptake was 1.09 %ID/g (mouse, stomach; intravenous, 1 h).
`N#C[C@@H]1CC(F)(F)CN1C(=O)CNC(=O)c1ccnc2c(NC(=O)[C@@H](N)CCCCNC(=O)CCOCCOCCOCCOCCOCCOCCNC(=O)CN3CCN(CC(=O)[O-])CCN(CC(=O)[O-])CCN(CC(=O)[O-])CC3)cccc12.[177Lu+3]` has a tissue uptake of 0.08 ± 0.02 %ID/g (mouse, U-87 MG tumour xenograft, salivary gland; 48 h).
For `COc1cccc(OC)c1-c1cc(C(=O)NC2(C(=O)O)C3CC4CC(C3)CC2C4)nn1-c1ccc(C(=O)N(C)CCOCCN(C)C(=O)[C@H](CCCCNC(=O)[C@H](CC(C)C)NC(=O)C2OC2C(=O)O)NC(=O)CN2CCN(CC(=O)[O-])CCN(CC(=O)[O-])CCN(CC(=O)[O-])CC2)cc1C(C)C.[177Lu+3]` (mixture of isomers), the renal retention was 12 ± 6% (HT-29 xenograft mouse, kidney; 168 h; reference: initial uptake).
The tissue uptake of `Cc1cc(C)n(CCN(CCN)CCCCCCNC(=O)[C@@H](N)Cc2c[nH]cn2)n1.[99Tc+].[C-]#[O+].[C-]#[O+].[C-]#[O+]` is reported as 0.57 ± 0.08 %IA/g (BALB/c nude mice, MCF7 xenograft, bone; intravenous, 15 min).
`CC(C)[C@H](NC(=O)[C@H](Cc1ccccc1)NC(=O)[C@H](Cc1ccccc1)NC(=O)OCC1c2ccccc2-c2ccccc21)C(=O)N[C@@H](CCC(=O)O)C(=O)N[C@@H](CCC(=O)O)C(N)=O` — result for “random coil content”: 48.7% (CD spectroscopy; peptide nanofibres).
The AUC(0-inf) of `Cc1ncsc1-c1ccc(CNC(=O)[C@@H]2C[C@@H](O)CN2C(=O)[C@@H](NC(=O)COCC(C)(COCCOCCOCCNC(=O)C[C@@H]2N=C(c3ccc(Cl)cc3)c3c(sc(C)c3C)-n3c(C)nnc32)COCCOCCOCCNC(=O)C[C@@H]2N=C(c3ccc(Cl)cc3)c3c(sc(C)c3C)-n3c(C)nnc32)C(C)(C)C)cc1` is reported as 27600 ng·h/mL (C57BL/6 mouse, male, plasma; intravenous, 5 mg/kg).

Excerpt of the above:
`CN(Cc1ccccc1)C(=O)CN1CCN(CC(=O)[O-])CCN(CC(=O)N(C)Cc2ccccc2)CC1.[44Sc+3]` has a tracer uptake of 9.75 %ID/g (mouse, liver; intravenous, 1 h).
`Cc1nn(-c2nc3c(F)cc(F)cc3s2)c(O)c1C(c1ccc(C(F)(F)F)cc1)c1c(C)nn(-c2nc3c(F)cc(F)cc3s2)c1O` gave an AUC(0-inf) observed of 122000 ng·h/mL and 39500 ng·h/mL and 48300 ng·h/mL (ICR mouse, plasma; intravenous, 5 mg/kg).
For `O=C(Nc1cnccc1-c1ccc([18F])cc1)c1ccnc(NC(=O)C2CC2)c1`, the SUV was 5.3 (ex vivo gamma counting; GSK-3β transgenic mice, early-stage, liver; intravenous, 120 min, mean, P-gp inhibitor pretreatment, together with: tariquidar 15 mg/kg iv).
`CC[C@H](C)[C@@H]1NC(=O)[C@H](Cc2ccc(O)cc2)NC(=O)CCCSC[C@@H](C(=O)N(CC(=O)N[C@@H](CC(C)C)C(=O)NCC(N)=O)Cc2ccc(F)cc2)NC(=O)[C@H](CC(N)=O)NC(=O)[C@H](CCC(N)=O)NC1=O`: “severe adverse events” 0% (human; intranasal and intravenous, 400 µg intranasal and 20 µg intravenous).
For `CCC(C(=O)Nc1ccc(C(N)=O)c(F)c1)n1cc(OC)c(-c2cc(Cl)ccc2-n2cc(C(F)(F)F)nn2)cc1=O` (stereo not drawn), “procedure-related adverse events” read 0% (healthy male humans; 25 mg, ASD vs IR, fed).
For `CN(Cc1ccccc1)C(=O)CN1CCN(CC(=O)N(C)Cc2ccccc2)CCN(Cc2cccc(C(=O)[O-])n2)CC1.[44Sc+3]`, the tracer uptake was 1.09 %ID/g (mouse, stomach; intravenous, 1 h).
